Measurements pooled from the literature.
Each line is one published result; not all experiments were run side by side. Numbers after ± are the reported error.
Target: Dual specificity mitogen-activated protein kinase kinase 2 (MAP2K2, Homo sapiens, UniProt P36507)
UniProt P36507, sequence (whole entry, looked up): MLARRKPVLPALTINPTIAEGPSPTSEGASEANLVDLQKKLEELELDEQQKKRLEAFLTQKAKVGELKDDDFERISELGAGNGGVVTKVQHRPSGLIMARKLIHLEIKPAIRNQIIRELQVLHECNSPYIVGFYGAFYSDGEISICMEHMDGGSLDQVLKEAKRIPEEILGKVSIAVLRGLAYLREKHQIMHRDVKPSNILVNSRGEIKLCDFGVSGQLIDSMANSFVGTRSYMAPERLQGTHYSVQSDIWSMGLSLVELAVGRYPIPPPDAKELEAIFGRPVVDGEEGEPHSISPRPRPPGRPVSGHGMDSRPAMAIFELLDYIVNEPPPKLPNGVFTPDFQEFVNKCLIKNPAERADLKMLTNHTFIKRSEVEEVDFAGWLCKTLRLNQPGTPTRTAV

Compound	assay	conditions	scale	measurement	result
c1cnc2ccc(Nc3nc(NC4CC4)c4nc[nH]c4n3)cc2c1	kinase activity, inhibitor, SelectScreen kinase profiling	1 µM	baseline: control	remaining activity	83%
O=C1NC(=O)/C(=C/c2ccc(-c3ccc(F)cc3O)o2)S1	enzyme activity	10 µM		remaining activity	77%
CC#CC(=O)N1CCC[C@H]1c1nc(-c2ccc(C(=O)Nc3ccccn3)cc2)c2c(N)nccn12	kinase activity, inhibitor, HotSpot radiometric	100 nM, together with: ATP 10 µM		remaining activity	94.5 ± 1.7%
[2H]c1cc(C)c(NC(=O)c2cnc(Nc3cc(N4CCCCC4)nc(C)n3)s2)c(Cl)c1		0.01 µM		inhibition	< 30%
O=C(NC1CCC1)c1ccc2nc(-c3cccc(NS(=O)(=O)NCCN4CCCCC4)c3)cn2c1	enzyme activity	10 µM		remaining activity	89%
CNc1ncc2c(/C=C/C(=O)N3CCC(OC)CC3)nn(Cc3cccc(C(F)(F)F)c3)c2n1	kinase activity, inhibitor	1 µM	baseline: untreated control	remaining activity	84%
COc1ccc(F)cc1C(=O)NCc1ccc(-c2nn([C@@H](C)C(F)(F)F)c(N)c2C(N)=O)cc1	kinase activity, inhibitor, HotSpot radiometric	1000 nM, together with: ATP at Km		remaining activity	7.6 ± 0.6%
CC/C(=N\NC(=O)NCc1cccc(O)c1)c1ccc(O)c(C)c1O	kinase activity	0.1 µM		inhibition	-1.7%
